Results pooled from the literature.
Protocols differ between the studies behind these lines. ± marks the error that the study gave.

`Cn1cc(-c2cn3nccc3c(-c3cnn([C@]4(CC#N)C[C@@H](C#N)C4)c3)n2)cn1` has an AUC(0-tau) of 15.1 ng·h/mL/mg (healthy Japanese human, fed; oral, 400 mg once daily, day 1, multiple ascending dose, dose-normalised, geometric mean).
With `CCCCCCCC(=O)N[C@H](CN1CCCC1)[C@H](O)c1ccc2c(c1)OCCO2` the AUC(0-tau) was 848 ng·h/mL (human healthy adults, plasma; oral, 84 mg twice daily, mean, added: paroxetine 30 mg daily).
`Nc1ccn([C@@H]2O[C@H](CO)[C@@H](O)C2(F)F)c(=O)n1` gave an AUC(0-tau) of 5080 ng·h/mL (human, plasma; intravenous, 1000 mg/m2, cycle 1 day 1, added: lonafarnib 100 mg twice daily).
The AUC(0-tau) of `CCOc1cc([C@@H](CS(C)(=O)=O)N2C(=O)c3cccc(NC(C)=O)c3C2=O)ccc1OC` is reported as 4120 ng·h/mL (human, plasma; oral, 30 mg twice daily, steady state, mean, added: methotrexate).
`Cc1nc(-c2ccc(OCC(C)C)c(C#N)c2)sc1C(=O)O` has an AUC(0-tau) of 7910 ng·h/mL (human, plasma; oral, dose not given, day 7, geometric mean, added: verinurad).
`COc1cc(Nc2ncc3c(n2)-c2ccc(Cl)cc2C(c2c(F)cccc2OC)=NC3)ccc1C(=O)O` gave an AUC(0-tau) of 28.7 µM·h (human, plasma; oral, 60 mg twice daily, day 7, steady state).
`O=c1[nH]c(=O)c(Cc2cccc(C(F)(F)F)c2)c([C@H]2CC[C@H](c3ccccc3)CC2)[nH]1` has an AUC(0-tau) of 11700 ng·h/mL (human, plasma; oral, 900 mg once daily, day 14, geometric mean).
With `C=C(C)[C@@H]1CC[C@]2(NCCN3CCS(=O)(=O)CC3)CC[C@]3(C)[C@H](CC[C@@H]4[C@@]5(C)CC=C(C6=CC[C@@](CF)(C(=O)O)CC6)C(C)(C)[C@@H]5CC[C@]43C)[C@@H]12` the AUC(0-tau) was 6280 ng·h/mL (human; oral, 50 mg once daily, day 14, multiple ascending dose).
The AUC(0-tau) of `CC(C)(C)OC[C@@H]1C(=O)NCCN1C(=O)C[C@H](N)Cc1cc(F)c(F)cc1F` is reported as 162 ± 31.8 ng·h/mL (human; 10 mg once daily, steady state, day 10).
`COCCCCn1c(C(=O)N(CC(C)C)[C@@H]2CNC[C@H](C(=O)N3CCOCC3)C2)nc2ccccc21` has an AUC(0-tau) of 9530 ng·h/mL (non-elderly human, plasma; oral, 160 mg once daily, day 7).

Some of these lines once more:
With `C=C(C)[C@@H]1CC[C@]2(NCCN3CCS(=O)(=O)CC3)CC[C@]3(C)[C@H](CC[C@@H]4[C@@]5(C)CC=C(C6=CC[C@@](CF)(C(=O)O)CC6)C(C)(C)[C@@H]5CC[C@]43C)[C@@H]12` the AUC(0-tau) was 6280 ng·h/mL (human; oral, 50 mg once daily, day 14, multiple ascending dose).
